Results from different studies.
Each numbered part is a random draw from the data of one study; scales do not carry over between parts. Substitutions count along the parent as printed.

Series 1
Organism: Saccharomyces cerevisiae
Effect on: peptide binding
Technique: yeast competitive growth sequencing
Molecule type: peptide
Strain: cyclin-Cln2 fusion strain
Concentration: concentration not given
Setting: Cln2 background subtracted
Reading: direction not given
Sequence | binding score
APPRKALFTYPKG | 0.586
SDSTVTKLDFDLEP | 0.357
IPDRSTKPVVFSPT | -0.527
QDYERRLLRQIVIQNE | 0.178
NCKKRRALDFLSRLPL | 0.326
LFVPQRKLEVSTEDVH | -0.0542
RKLDLEGIGR | 1.65
VLLKRLQDVVSERANH | 0.181
EDLLKELQKQLEE | -0.38
PHKTFRKLRLFDTPHT | -0.41

Series 2
Target: ABI1, truncated, D143A, DHFR fusion (Arabidopsis thaliana)
Technique: DHFR PCA, deep sequencing
Medium: yeast
Setting: methotrexate growth selection, single substitutions
With: (+)-ABA 17 µM
Reference: wild-type fitted maximum
Reading: higher = stronger binding
Parent: PYL1, truncated, DHFR fusion (Arabidopsis thaliana); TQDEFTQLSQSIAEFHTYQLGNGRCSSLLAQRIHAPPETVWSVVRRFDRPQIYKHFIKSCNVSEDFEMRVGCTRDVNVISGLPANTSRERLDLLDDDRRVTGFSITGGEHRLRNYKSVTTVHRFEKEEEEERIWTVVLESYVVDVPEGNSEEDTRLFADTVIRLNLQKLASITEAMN
Substitution | relative binding score [%]
S104V | 11.3
S171T | 90.3
R45M | 4.58
Q51S | 31.2
N114P | -6.78
S42E | 87
C72H | 59.8
E67Q | 81.8
D75S | 84.6
I162P | 3.5
M68D | 24.8
R98A | 71
L94G | -15.8
R32Y | 74
L169A | -19.8
E174Q | 75.9
E130M | 82.9

Series 3
Target: Centromere-binding protein 1, full length, N-terminal tag (CBF1, Saccharomyces cerevisiae, UniProt P17106, residues 1-351)
Chain of UniProt P17106 (whole entry, looked up): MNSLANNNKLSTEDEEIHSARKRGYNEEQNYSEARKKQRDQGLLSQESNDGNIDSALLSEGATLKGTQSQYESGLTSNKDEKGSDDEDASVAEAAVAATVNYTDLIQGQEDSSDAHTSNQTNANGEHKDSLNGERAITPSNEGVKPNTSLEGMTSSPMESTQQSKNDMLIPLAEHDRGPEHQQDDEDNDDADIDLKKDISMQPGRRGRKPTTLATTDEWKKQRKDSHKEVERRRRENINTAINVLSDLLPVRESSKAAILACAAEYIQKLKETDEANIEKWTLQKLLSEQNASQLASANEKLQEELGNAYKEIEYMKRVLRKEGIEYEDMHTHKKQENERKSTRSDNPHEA
Technique: protein-binding microarray
Molecule type: double-stranded DNA, one strand shown
Medium: in vitro
Concentration: 0.8 µM
Setting: whole 60-bp probe, no competitor
Reading: higher = stronger binding
All sequences stand within: … GTCTTGATTCGCTTGACGCTGCTG
Strand | fluorescence intensity
CTACTTATTACTGTCGGCGTGCCATCCTTTTCTTTC | 600 a.u.
CTAGAAAGCGGGACGGACGTGCTTGTTTTACCTTTC | 504 a.u.
TGTACGAAGCTATGTCATGTAAGTATAGTAGTTAGG | 539 a.u.
CTAGAATTAAGAGAGCACACGAAGTTACTGCACTTC | 498 a.u.
CTAATCAAGCCTATACACGTTTATTGCACACTCTTC | 559 a.u.
GAACTTTTTATGGCTCATCAGACTGACACCCTGTAG | 553 a.u.
GAACTTTCTTAGCCTCATGACTTATCTGCTCTTTAG | 668 a.u.
GAAGGGTCCTACTGATGACGGGCTGGCAAACGGTAG | 498 a.u.
CTAATAATTCAGCGTGATATGATGAAATTTTGTTTC | 643 a.u.
GAATAGAACCACAGTCACGTGATATGCTTATCATAG | 37500 a.u.
GAAAGTTGTTCCGCTCACGCGAACAGGTTTTTCTAG | 518 a.u.

Series 4
Target: Sal-like protein 4, full length isoform A (SALL4, Homo sapiens, UniProt Q9UJQ4, residues 1-1053)
Chain of UniProt Q9UJQ4 (whole entry, looked up): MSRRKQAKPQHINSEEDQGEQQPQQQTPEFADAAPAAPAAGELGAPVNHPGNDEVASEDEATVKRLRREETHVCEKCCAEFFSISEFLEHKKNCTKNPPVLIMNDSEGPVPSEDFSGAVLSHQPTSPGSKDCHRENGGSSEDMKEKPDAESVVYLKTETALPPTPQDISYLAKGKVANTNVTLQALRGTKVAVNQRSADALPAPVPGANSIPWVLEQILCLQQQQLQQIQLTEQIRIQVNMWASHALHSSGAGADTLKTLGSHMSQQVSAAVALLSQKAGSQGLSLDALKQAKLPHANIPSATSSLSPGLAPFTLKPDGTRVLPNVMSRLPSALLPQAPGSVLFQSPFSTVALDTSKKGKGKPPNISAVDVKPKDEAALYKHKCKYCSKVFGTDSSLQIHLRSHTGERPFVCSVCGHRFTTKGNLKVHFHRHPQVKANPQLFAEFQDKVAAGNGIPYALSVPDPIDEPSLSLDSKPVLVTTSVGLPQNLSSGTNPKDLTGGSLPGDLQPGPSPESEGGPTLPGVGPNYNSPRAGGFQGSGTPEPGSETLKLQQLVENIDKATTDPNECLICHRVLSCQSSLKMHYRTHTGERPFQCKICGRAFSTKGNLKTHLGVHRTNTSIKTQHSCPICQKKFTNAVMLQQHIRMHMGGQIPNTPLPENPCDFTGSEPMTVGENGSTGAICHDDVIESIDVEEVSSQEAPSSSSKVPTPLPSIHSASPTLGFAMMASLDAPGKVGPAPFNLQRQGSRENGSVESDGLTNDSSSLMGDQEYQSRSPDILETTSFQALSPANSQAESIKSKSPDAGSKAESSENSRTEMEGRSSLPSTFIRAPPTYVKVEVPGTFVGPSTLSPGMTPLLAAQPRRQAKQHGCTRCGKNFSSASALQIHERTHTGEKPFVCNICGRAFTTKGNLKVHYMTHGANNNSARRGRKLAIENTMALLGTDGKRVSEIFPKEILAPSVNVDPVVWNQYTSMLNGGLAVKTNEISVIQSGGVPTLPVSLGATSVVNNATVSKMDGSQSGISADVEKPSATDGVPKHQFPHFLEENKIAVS
Technique: universal PBM
Molecule type: double-stranded DNA, one strand shown
Medium: in vitro
Concentration: 600 nM
Setting: 8-mer, flanks averaged, mean of replicates
Reading: higher = stronger binding
Strand | E-score
ACTTCCCT | -0.108
GACCGGCA | -0.302
CGCTAATA | 0.279
GAATAACA | 0.226
ACCCCGTA | -0.0503
TCACACAA | 0.11
CCTCCCAC | -0.18
ATGTCAGC | -0.184
CTCATTGC | 0.0656
GAATACTA | 0.239
CGCGAATA | 0.179
ACTAGCGC | -0.204
ACGCCAAG | -0.195
CCCCAGGA | -0.332
CTACTCGC | -0.187
GTACCTCA | 0.0381
CGGGTAAA | -0.00673
ATTTTGGG | 0.107
ATAGCAAC | 0.0791
AAAGGACG | 0.0124
ATTTTTGG | 0.216
GCAGGGAA | -0.15
CCAGATGA | -0.0626

Series 5
Target: Ras GTPase-activating protein-binding protein 1, full length (G3BP1, Homo sapiens, UniProt Q13283)
Chain of UniProt Q13283 (whole entry, looked up): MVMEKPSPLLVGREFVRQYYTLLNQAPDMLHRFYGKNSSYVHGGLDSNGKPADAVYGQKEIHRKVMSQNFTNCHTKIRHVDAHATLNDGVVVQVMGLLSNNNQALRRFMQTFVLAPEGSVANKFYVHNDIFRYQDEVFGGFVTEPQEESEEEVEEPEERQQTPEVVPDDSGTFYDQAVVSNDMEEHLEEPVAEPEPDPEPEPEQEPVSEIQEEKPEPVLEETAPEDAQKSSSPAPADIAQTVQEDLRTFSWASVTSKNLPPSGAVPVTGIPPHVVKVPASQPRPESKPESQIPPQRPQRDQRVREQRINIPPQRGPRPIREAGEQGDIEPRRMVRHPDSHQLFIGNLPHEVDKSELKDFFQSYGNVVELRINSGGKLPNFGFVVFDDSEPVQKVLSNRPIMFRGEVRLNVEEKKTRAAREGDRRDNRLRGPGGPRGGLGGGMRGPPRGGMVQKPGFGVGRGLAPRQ
Technique: RNA Bind-n-Seq
Molecule type: RNA
Medium: in vitro
Concentration: 200 nM
Setting: whole 134-nt RNA, ends assumed
With: 150 mM LiCl
Reference: input library
Reading: higher = stronger binding
All molecules: 7-deaza-guanosine replaces G
All sequences stand within: GGGAGUUCUACAGUCCGACGAUC … UGGAAUUCUCGGGUGUCAAGG
Strand | log2 enrichment
CCUGUGCUACACAUCGUAUGUACCGAAUCGGUUUUUUUGGUUUUUUUGGUUUUUUUGGGGAAAGUAUUAUGUUACGCCGUUCGGAUCUGC | -0.165
CACAGACAACACGCACCCACACAGACACAGAGCGAAGGGGUUGGGAUGGGGACAGGGUGCACAGCAGGGCGGGGUAGGACCCCAGCCCCU | 0.243
UAACUUUAGAGGAGGAUCUGAUGGAUAUGGCAGUGGACGUGGAUUUGGGGAUGGCUAUAAGGGGUAUGGAGGAGGACCUGGAGGUGGCAA | -0.0302
UCAAGUCCUGUGCUACACAUCGUAUGUACCGAAUCGGAAAAAGGAAAAAGGAGGAAAGUAUUAUGUUACGCCGUUCGGAUCUGCACUUCC | -0.251
CAACGUUGAAAUGGAUUGGGUGUUGAAGCAUACUGGUCCAAAUAGUCCUGACACGGCCAAUGAUGGCUUUGUACGGCUUAGAGGACUUCC | -1.96
UGUCUGCGGACCUGGUUUCAGCGCUGGUGGGACUGCAGCCGGAGGUCAGCCCAGCAGAGACUGCAGCUGGAGAGGGCAGUGCAACACCAC | 0.835
CAAGUCCUGUGCUACACAUCGUAUGUACCGAAUCGGCCCGGGCCCGGGGCCCGGGGAAAGUAUUAUGUUACGCCGUUCGGAUCUGCACUU | -0.763
UCAAGUCCUGUGCUACACAUCGUAUGUACCGAAUCGGAAAAAGGUUUGGUUUGGAAAGUAUUAUGUUACGCCGUUCGGAUCUGCACUUCC | -1.06

Series 6
Target: BATF2, bZIP domain (human)
Technique: DHFR protein complementation
Medium: yeast
Setting: single substitutions, most at no-binding floor
Reference: wild-type JUN-FOS pair
Reading: higher = stronger binding
Parent: JUN, bZIP domain (human); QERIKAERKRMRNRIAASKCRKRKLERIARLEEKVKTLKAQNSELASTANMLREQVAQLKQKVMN; partner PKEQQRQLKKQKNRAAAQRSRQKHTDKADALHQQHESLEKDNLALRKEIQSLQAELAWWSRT
Substitution | binding fitness
E54T | -0.465 natural log
E32C | -0.914 natural log
T37P | -1.4 natural log
S47W | -0.437 natural log
I28A | -0.542 natural log
N42I | -1.42 natural log
L31N | -1.32 natural log
A29P | -0.888 natural log
K34W | -0.401 natural log
E54W | -1.03 natural log
S43Y | -0.388 natural log
N42W | -1.32 natural log

Repeated from above (series 4):
Strand | E-score
CGGGTAAA | -0.00673
AAAGGACG | 0.0124
ACTTCCCT | -0.108
ACTAGCGC | -0.204
GACCGGCA | -0.302
ACGCCAAG | -0.195
CGCGAATA | 0.179
TCACACAA | 0.11
ATTTTGGG | 0.107
CCCCAGGA | -0.332
ATAGCAAC | 0.0791
ATGTCAGC | -0.184
